Experimental data gathered from unrelated publications.
Several values in a cell are separate wells, animals, samples, runs or records. ± gives the spread as reported.

Under “log2 fold change”, `Cc1ncsc1-c1ccc(C(C)NC(=O)C2CC(O)CN2C(=O)C(NC(=O)CCCCCCCCCCN2CCCC(Nc3ncc(Cl)c(Nc4ccccc4S(=O)(=O)C(C)C)n3)C2)C(C)(C)C)cc1` (centres unmarked) is recorded as -1.12 (22Rv1; RNA-seq, item: TAB1 mRNA; concentration not given; reference: DMSO).
For `O=C(Nc1cnccc1-c1ccc([18F])nc1)c1ccnc(NC(=O)C2CC2)c1`, the SUV was 0.999 (FVB/NJ mice (both sexes), large intestine; intravenous, dose not given, 120 min).
`C=C(NC(=O)c1csc(-c2nc3c(cc2O)-c2nc(cs2)C(=O)NC(C(C)O)C(=O)NC(=C(C)OC)c2nc(cs2)C(=O)NC2c4nc(cs4)C(=O)NC(COC(=O)c4c5c6c(cccc6n4O)COC(=O)C(OC4CC(C)(O)C(N(C)C)C(C)O4)C2OC5)c2nc-3cs2)n1)C(N)=O` (centres unmarked) gave an MRT(0-last) of 1.87 h (Sprague-Dawley rat, both sexes, plasma; intravenous infusion, 6 mg/kg, multiple doses, day 7).
`Cc1cc(-c2ccc(C(=O)[C@@H]3CCCC[C@H]3C(=O)Nc3cnn4c3C(=O)NCC4)cc2)[nH]n1`: “radioactivity recovery per interval” 2.08% and 12.7% and 1.02% and 0.52% (human, faeces; oral, 200 mg, 96-120 h; reference: dose).
For `CC(C)[C@H](NC(=O)[C@H](Cc1c[nH]c2ccccc12)NC(=O)[C@H](CCCNC(=N)N)NC(=O)[C@H](CCCNC(=N)N)NC(=O)[C@@H](NC(=O)[C@@H](NC(=O)[C@H](CCCNC(=N)N)NC(=O)[C@@H](NC(=O)[C@@H](NC(=O)[C@H](CCCNC(=N)N)NC(=O)[C@H](CCCNC(=N)N)NC(=O)[C@@H](NC(=O)[C@H](Cc1c[nH]c2ccccc12)NC(=O)[C@H](CCCNC(=N)N)NC(=O)[C@H](CCCNC(=N)N)NC(=O)[C@@H](NC(=O)[C@H](CCCNC(=N)N)NC(=O)[C@H](CCCNC(=N)N)NC(=O)[C@@H](NC(=O)[C@H](Cc1c[nH]c2ccccc12)NC(=O)[C@H](CCCNC(=N)N)NC(=O)[C@@H](N)CCCNC(=N)N)C(C)C)C(C)C)C(C)C)C(C)C)C(C)C)C(C)C)C(C)C)C(=O)N[C@@H](CCCNC(=N)N)C(=O)N[C@@H](CCCNC(=N)N)C(=O)O`, the anion gap was 33.7 mEq/L (CD1 mouse, plasma; intravenous, 15 mg/kg, 16 h, [14C]-labelled compound).
With `C[C@]12C[C@H](c3ccc(S(C)(=O)=O)cc3)C3=C4CCC(=O)C=C4CC[C@H]3[C@@H]1CC[C@@]2(O)C(F)(F)C(F)(F)F` the plasma concentration was 0.188 ng/mL (item: compound (parent); healthy human volunteers, pooled plasma; oral, 5 mg daily, day 28, 312 h).
With `Cc1nc(N)nc2c1C(=O)N[C@@H](c1ccc(F)cc1-c1cccc(O[11CH3])n1)C2` the SUV was 0.7 ± 0.1 (radioligand, ex vivo biodistribution; healthy mouse, red blood cells; 60 min p.i.).
With `O=C(Nc1cnccc1-c1ccc([18F])cc1)c1ccnc(NC(=O)C2CC2)c1` the SUV was 0.08 (FVB/NJ mice (both sexes), hippocampus; intravenous, dose not given, 120 min).
`COC1CN([C@H]2CC[C@H]([C@@]3(C)Oc4c(Cl)cc(C(=O)NCc5c(SC)cc(C)[nH]c5=O)c(C)c4O3)CC2)C1` — result for “log2 fold change”: 0.024 (RNA-seq, item: TGM3 mouse homolog; mouse, HT-1376 xenograft, whole blood; dose not given; reference: vehicle).
`C=CC(=O)Nc1cccc(Cn2ncc3cnc(Nc4cnn(CCOC)c4)nc32)c1`: “percent of control” 88% (CHEK2 human; binding, KINOMEscan; 100 nM; lower = stronger binding).
`O=C(O)CCCCC1(N(CC(=O)O)CC(=O)O)CN(CC(=O)O)CCN(CC(=O)O)C1`: “protonation constant (log)” 4.73 (pH-potentiometry, item: logK3H; 0.15 M NaClO4; 25 °C).

For quick reference, copied from above:
For `CC(C)[C@H](NC(=O)[C@H](Cc1c[nH]c2ccccc12)NC(=O)[C@H](CCCNC(=N)N)NC(=O)[C@H](CCCNC(=N)N)NC(=O)[C@@H](NC(=O)[C@@H](NC(=O)[C@H](CCCNC(=N)N)NC(=O)[C@@H](NC(=O)[C@@H](NC(=O)[C@H](CCCNC(=N)N)NC(=O)[C@H](CCCNC(=N)N)NC(=O)[C@@H](NC(=O)[C@H](Cc1c[nH]c2ccccc12)NC(=O)[C@H](CCCNC(=N)N)NC(=O)[C@H](CCCNC(=N)N)NC(=O)[C@@H](NC(=O)[C@H](CCCNC(=N)N)NC(=O)[C@H](CCCNC(=N)N)NC(=O)[C@@H](NC(=O)[C@H](Cc1c[nH]c2ccccc12)NC(=O)[C@H](CCCNC(=N)N)NC(=O)[C@@H](N)CCCNC(=N)N)C(C)C)C(C)C)C(C)C)C(C)C)C(C)C)C(C)C)C(C)C)C(=O)N[C@@H](CCCNC(=N)N)C(=O)N[C@@H](CCCNC(=N)N)C(=O)O`, the anion gap was 33.7 mEq/L (CD1 mouse, plasma; intravenous, 15 mg/kg, 16 h, [14C]-labelled compound).
